Assay results collected from several papers.
Parts stem from different laboratories: compare values within a part only. Changes are numbered by the printed parent chain.

Block 1
Target: RING finger protein unkempt homolog, zinc fingers 1-6, GST-SBP tag (UNK, Homo sapiens, UniProt Q9C0B0, residues 30-357)
Technique: RNA Bind-n-Seq
Form: RNA
Matrix: in vitro
Concentration: not given
Setting: RNA with constant flanks, human and mouse sites, ends assumed
Relative to: input RNA pool
Direction: higher = stronger binding
Quantity: bound/input enrichment
Construct (chain): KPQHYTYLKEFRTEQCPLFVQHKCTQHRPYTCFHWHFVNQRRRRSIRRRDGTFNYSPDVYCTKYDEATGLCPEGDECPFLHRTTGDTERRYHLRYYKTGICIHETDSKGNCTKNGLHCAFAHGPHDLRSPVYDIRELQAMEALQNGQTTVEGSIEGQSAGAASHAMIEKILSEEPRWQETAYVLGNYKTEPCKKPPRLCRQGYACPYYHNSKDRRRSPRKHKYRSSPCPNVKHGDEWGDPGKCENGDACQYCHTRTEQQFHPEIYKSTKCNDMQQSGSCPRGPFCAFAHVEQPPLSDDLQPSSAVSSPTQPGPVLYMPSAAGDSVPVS
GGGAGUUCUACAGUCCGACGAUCCUUGCUGUUAAAUACACAGAUGCCAGAGGCCAGCCUCGCUAUCCAGUCAAUUCUGUUAAUAUUCUGAAAGCCCAUGGGAGAAGUCAGAUAGAAAGCAUGCUGAUCAAUGGCUAUGCGCUCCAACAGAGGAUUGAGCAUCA: 0.236 ratio
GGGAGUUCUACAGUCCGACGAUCAAAAGGAAACCAACCACCUGCAUGCUGCAGAAGGUUCUUCUCAAUGAAUAUAAUGGCAUCGAUUUACCUGUAGAAAACCCUGCAGAUGGGACCAGGAGCCCAAGUCCUUGUAAAUCCCUACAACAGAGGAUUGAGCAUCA: 0.152 ratio
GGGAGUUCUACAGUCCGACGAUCCCAACGUUAGAAGCAGCCUGGCCUCAUCUACAGCUUGUUUAUGAAUUUUUCUUAAGAUUUUUAGAGUCUCCAGAUUUCCAACCUAAUAUAGCGAAGAAAUAUAUUGAUCAGAAGUUUGUACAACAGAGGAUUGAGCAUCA: 1.54 ratio
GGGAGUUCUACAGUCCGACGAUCAACCUUCCAUCGUUGCCAGAUAUCCCACCUAUACAGUUGGAAGAUGCUGGCUCAAGUAGUUUAGAUAAUCUACUGAGUAGAUAUAUCUCAGGCAGUCAUCUACCCCCUCAGCCUACAAGUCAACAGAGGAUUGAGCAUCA: 0.409 ratio
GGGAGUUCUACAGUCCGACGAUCCUCUAGGCUUUUCAGAUGUGGAUCAUACCUAUGCUCAAAGAACUCAGCUCUUUGACACCUUAGUAAAUUUCUUUCCUGACAGCAUGACUCCUCCUAAAGGCAACCUGGUAGACCUGAUCACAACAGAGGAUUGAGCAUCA: 9.8 ratio
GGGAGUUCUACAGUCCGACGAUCAAGGAAAGAAUACUGAAAAUUGUCACUGGAUUUAAUGGUAUCCCUUUUACUAUUCAGCGACUAUGUGAAUUGUUAACAGAUCCAAGGAGAAACUAUACAGGAACAGACAAAUUUCUCAGACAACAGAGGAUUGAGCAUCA: 0.205 ratio
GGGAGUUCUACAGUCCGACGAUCCAGCUCUUCUCAGACUACGUGGGCAGCCCCAUCACCUGCACCUGCUUCAGCCGGGAUGGGCAGUGCACCCUGGUGUCCAGCCUGGACUCCACAUUGCGGCUCCUGGACAAAGACACAGGGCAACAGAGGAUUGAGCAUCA: 0.0893 ratio
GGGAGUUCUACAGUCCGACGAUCCGGACUGCUGGAGAUGGUGGAGUCCGUCAUGCCGGUGGUGGUGUGCACAUUGAGCCCCGGUAUAGACAGUUCCCCCAGCUGACCAGAUCCCAGGUGUUCCAGAGCGAGUUCUUCAGCGGACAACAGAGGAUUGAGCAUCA: 0.0623 ratio
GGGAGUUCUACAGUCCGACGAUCACCACCGGAGAAUUCCUGGGGCGCACCGCCAAGAGCUGGGGUUUGAUCUUGCUCUUCUACCUAGUUUUUUAUGGGUUCCUGGCUGCACUCUUCUCAUUCACGAUGUGGGUUAUGCUUCAGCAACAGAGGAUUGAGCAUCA: 0.478 ratio
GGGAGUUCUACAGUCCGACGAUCAAGUGGCUUCUGGAAUAUACAGAAGAAUAUGAUCAGAUAUUUGCUCCUAAGAAAAAACAAAAGAAGGUACAGGAACAAGUGCAUAAGGUAAGUUCGCGCUGUGAAGACGAAAGCCUUCUUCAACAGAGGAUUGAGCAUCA: 0.173 ratio
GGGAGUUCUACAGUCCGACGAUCGUAAUGGACGUCAACACUGCUCUACAAGAGGUGCUGAAGACCGCCCUCAUCCACGAUGGCCUAGCACGUGGCAUACGCGAAGCUGCCAAAGCCUUAGACAAGCGCCAAGCCCAUCUGUGUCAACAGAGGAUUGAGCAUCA: 0.124 ratio

Block 2
Target: CEP164, C-terminal peptide (human)
Technique: DHFR complementation, deep sequencing
Matrix: yeast
Setting: single substitutions, model-inferred values
Relative to: wild type
Direction: higher = weaker binding
Quantity: binding free energy change
Starting sequence: PDZK1, PDZ domain 2 (human); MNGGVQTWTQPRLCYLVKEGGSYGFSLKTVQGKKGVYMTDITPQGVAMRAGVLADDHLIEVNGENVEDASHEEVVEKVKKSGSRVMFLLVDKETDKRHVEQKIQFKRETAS; partner HNRVKVYRF
E108P: -0.0756 kcal/mol
E72A: 0.587 kcal/mol
E108L: -0.187 kcal/mol
M38N: 1.48 kcal/mol
L27D: 0.647 kcal/mol
E100Y: -0.0825 kcal/mol
Y37K: 0.82 kcal/mol
V36H: -1.64 kcal/mol
T39K: 1.65 kcal/mol
H98R: -0.151 kcal/mol
T42V: -0.219 kcal/mol
L58H: 0.26 kcal/mol
G20F: 0.348 kcal/mol
Q44P: 0.643 kcal/mol
V90G: -0.19 kcal/mol
S22F: -0.0314 kcal/mol
D40N: 0.638 kcal/mol
T94P: 0.0763 kcal/mol
G45E: 1.05 kcal/mol
T42C: 0.278 kcal/mol
S22T: -0.159 kcal/mol
M48P: 1.66 kcal/mol
T39F: 0.317 kcal/mol
D95L: -0.0438 kcal/mol
T109G: -0.312 kcal/mol

Block 3
Target: DDIT3, bZIP domain (human)
Technique: DHFR protein complementation
Matrix: yeast
Setting: single substitutions, most at no-binding floor
Relative to: wild-type JUN-FOS pair
Direction: higher = stronger binding
Quantity: binding fitness
Starting sequence: JUN, bZIP domain (human); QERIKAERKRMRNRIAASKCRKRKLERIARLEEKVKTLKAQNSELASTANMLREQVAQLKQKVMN; partner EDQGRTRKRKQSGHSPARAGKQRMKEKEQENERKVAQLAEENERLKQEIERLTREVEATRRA
T37W: 0.0959 natural log
A46D: -0.658 natural log
E33P: -1.23 natural log
A46C: -0.117 natural log
K34V: -0.0352 natural log
T37C: 0.0529 natural log
A57S: -0.0206 natural log
R30S: 0.108 natural log
T48L: 0.00528 natural log
R53S: -0.39 natural log
S47F: 0.0429 natural log
V35N: -1.23 natural log
L38S: -1.31 natural log
L52C: -1.23 natural log
T48V: 0.0542 natural log
K34H: 0.0183 natural log
E54Q: -0.191 natural log
S43H: 0.0572 natural log
A40H: -0.0274 natural log
R53D: -1.25 natural log
K36P: -1.3 natural log
Q55A: 0.0206 natural log
K36E: 0.0781 natural log
E44I: -0.0414 natural log
Q55M: 0.0469 natural log

Block 4
Target: Sal-like protein 4, full length isoform A (SALL4, Homo sapiens, UniProt Q9UJQ4, residues 1-1053)
Sequence of UniProt Q9UJQ4 (whole entry, looked up): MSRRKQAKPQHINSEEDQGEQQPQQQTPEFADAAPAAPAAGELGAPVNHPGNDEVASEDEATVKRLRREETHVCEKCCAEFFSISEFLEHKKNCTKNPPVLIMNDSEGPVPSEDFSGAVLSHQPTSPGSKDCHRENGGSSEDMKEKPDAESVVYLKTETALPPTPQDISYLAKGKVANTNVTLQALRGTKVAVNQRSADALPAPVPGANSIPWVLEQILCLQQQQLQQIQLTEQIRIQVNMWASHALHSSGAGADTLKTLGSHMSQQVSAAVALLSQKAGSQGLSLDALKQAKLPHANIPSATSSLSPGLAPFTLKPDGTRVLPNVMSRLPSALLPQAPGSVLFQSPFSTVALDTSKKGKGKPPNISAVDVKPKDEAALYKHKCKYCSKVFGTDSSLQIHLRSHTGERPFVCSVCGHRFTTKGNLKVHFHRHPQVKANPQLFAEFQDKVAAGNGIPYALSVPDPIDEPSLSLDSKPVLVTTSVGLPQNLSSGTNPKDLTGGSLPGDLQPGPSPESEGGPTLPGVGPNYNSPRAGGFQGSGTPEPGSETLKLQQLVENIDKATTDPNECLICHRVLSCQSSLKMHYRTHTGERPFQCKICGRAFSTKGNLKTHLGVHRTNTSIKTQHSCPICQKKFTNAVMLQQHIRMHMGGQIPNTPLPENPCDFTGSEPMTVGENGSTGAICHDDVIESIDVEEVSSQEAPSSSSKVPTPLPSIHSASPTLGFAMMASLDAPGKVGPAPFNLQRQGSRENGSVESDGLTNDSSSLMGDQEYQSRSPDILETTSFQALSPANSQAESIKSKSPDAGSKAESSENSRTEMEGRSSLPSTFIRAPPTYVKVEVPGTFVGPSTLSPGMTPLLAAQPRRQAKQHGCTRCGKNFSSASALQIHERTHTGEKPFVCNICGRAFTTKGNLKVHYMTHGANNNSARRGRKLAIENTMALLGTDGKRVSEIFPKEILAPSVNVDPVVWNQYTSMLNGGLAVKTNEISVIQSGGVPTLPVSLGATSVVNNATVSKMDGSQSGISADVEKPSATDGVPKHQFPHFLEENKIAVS
Technique: universal PBM
Form: double-stranded DNA, one strand shown
Matrix: in vitro
Concentration: 600 nM
Setting: 8-mer, flanks averaged, mean of replicates
Direction: higher = stronger binding
Quantity: E-score
AAACTTGT: 0.304
CCATAAAG: 0.124
AATGGACG: 0.134
AGGACGCG: -0.188
AGTAATGC: 0.0169
CTGCAAGC: -0.176
CCGGCCAA: -0.307
AAATCCCC: -0.182
ACCCGTTC: -0.1
GGAGTGAA: 0.0613
ATTTCCGG: 0.0321
CCTCGATA: 0.21
CAATGTGA: 0.209
AGCACGAG: 0.0265
AAGGAATT: 0.213
AATGCGGA: -0.00347
CTCCACTC: -0.142
ACTTGGAC: -0.115
ACCCGTAA: -0.134
TAATCAAA: 0.318
CCCCGTAA: -0.058
GGGTGGGA: -0.151
ACTAGCGA: -0.0124
GTCGGATA: -0.0234
CTAGCGAC: -0.0563

Block 5
Target: CCNB1, cyclin fold, Cln2 fusion (human)
Technique: yeast growth competition, sequencing
Matrix: yeast
Setting: weak parent motif
Relative to: not given
Direction: higher = stronger binding
Quantity: normalised enrichment score
Starting sequence: RB1 docking peptide (human); PKPLKKLRFDIEG
PKPLKKLRFNIEG [D10N]: 0.574
KKPLKKLRFDIEG [P1K]: 1.1
PKPLKKLRHDIEG [F9H]: 0.557
PKPLKKLRPDIEG [F9P]: 0.198
YKPLKKLRFDIEG [P1Y]: -0.237
PKPLKKLRDDIEG [F9D]: 0.735
PKPLKKLRFDFEG [I11F]: 0.894
PKPLKKLRFDQEG [I11Q]: -0.949
IKPLKKLRFDIEG [P1I]: -0.0794
PKPLKKLRFHIEG [D10H]: 1.03
PKLLKKLRFDIEG [P3L]: -0.0292
PKPLKKLRFDHEG [I11H]: 0.789
PKPLKSLRFDIEG [K6S]: -0.238
PKPLKKLRFEIEG [D10E]: -0.236
PKPLKKLRFDIET [G13T]: 0.0364
PWPLKKLRFDIEG [K2W]: 0.63
PKPLDKLRFDIEG [K5D]: 0.188
PKPIKKLRFDIEG [L4I]: 1.75
PKPLHKLRFDIEG [K5H]: 0.708

Excerpt of the above (block 5):
PWPLKKLRFDIEG [K2W]: 0.63
PKPLKKLRFDIET [G13T]: 0.0364
PKPLKKLRFEIEG [D10E]: -0.236
PKPLKKLRDDIEG [F9D]: 0.735
PKPLKKLRFHIEG [D10H]: 1.03
PKPIKKLRFDIEG [L4I]: 1.75
PKPLDKLRFDIEG [K5D]: 0.188
PKPLHKLRFDIEG [K5H]: 0.708
